Measurements pooled from the literature.
Every numbered part comes from another study and shows a few of its results, in no order.

Sample 1 — method: RNA Bind-n-Seq; form: RNA; sample: in vitro; tested at: 365 nM; reference: no-protein control; reading: higher = stronger binding
Target: RNA binding protein fox-1 homolog 2, RRM domain, GST-SBP tag (RBFOX2, Homo sapiens, UniProt O43251-10, residues 100-194)
Setting: natural RNA segment, single round, ends assumed
Target sequence (chain): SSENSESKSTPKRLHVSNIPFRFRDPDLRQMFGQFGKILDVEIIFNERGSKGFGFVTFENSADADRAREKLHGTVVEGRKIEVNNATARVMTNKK
Strand | RBNS enrichment (R)
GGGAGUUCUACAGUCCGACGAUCUCACAUAUGUUGUGAAUUUUCCUUGGUUCUUUUUAAAGGAAUGAUAAUAAAGUUACUUGCUUUAGGAUUUGCUUGUUUUUCUUCCACUUCAGAAGCUUCUGAGAGGGAAUUGGAAUUCUCGGGUGCCAA | 0.386
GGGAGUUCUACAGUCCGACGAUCGGAGCUGAGGUCAGCAAGCCAGUGGUUCUUAAGAGCUGAACCUCUGGCUUUACUGUUGGAAGUUGUCUAUUUCAACCUCAGAGUUUCCUAAUAUGGCGCUCCUGAUCUAUUGGAAUUCUCGGGUGCCAA | 0.282
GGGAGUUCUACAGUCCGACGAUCGGGCCCUGGAGGCAACUGGCACGGCCUGGUCCCCCUGCUUUGCUGUAUUCUGAUUCCCCAACCCGCUCCCCUGGGCUCAGAUCUGUCCUGUCCUAGGGCGGAGCCAGGCGUGGAAUUCUCGGGUGCCAA | 0.33
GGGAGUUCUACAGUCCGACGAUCCUCGACCUGAAGAUUAUCGGCUAUAAGAGAAUAAGAAUUGCAGAAAAUAACAGUGAAGUGAUUGAAACUUUCUUCUGAUGAGUUUCUCUAACCUACAGGAUGGAGUAAAAUGGAAUUCUCGGGUGCCAA | 0.416
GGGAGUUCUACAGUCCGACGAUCCAAAAGCUGCUGUCACAAUUUCAUUCCGAGGCCAUCUUGCCCCUCCCCCUUCACUCUGCCUUCCUGAGUUGGCCCCACUCUGCACGGGAGGGAGGGCCCACCUUAGACUGUGGAAUUCUCGGGUGCCAA | 1.31
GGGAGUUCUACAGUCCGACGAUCAGAAAAAAAUUAAGAAAUUGCUCAAGGGAAACAUUUGUAAAUGGAUUUGAAAGAUUGAGCCAAAUUCUGUUGUCAGUUCUAAGCAUGCAGUUCUCACCUCCAUUUAGUCCUGGAAUUCUCGGGUGCCAA | 19
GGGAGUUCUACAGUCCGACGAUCAUACAUUAAUUAAUGGCUUCGUUAAUUAAUGUCAUGUUGCUUGUUGCUUUCUCAGUGUGUGUAUGGUCCAUGCCCAGUGCUGGUGACAGGGUGGGUAUCCAUGAUGUGUGUGGAAUUCUCGGGUGCCAA | 0.67
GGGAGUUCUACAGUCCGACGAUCCCCGCCCGACACCUGCGUGAGCCCUAGGAUCCAGGUCCUCUCUCACCUCUGACCCAGCUCCAUGCCAGAGCAGGAGCCCCGGUCAAUUUUGGACUCUGCACUCCCUCUCCUGGAAUUCUCGGGUGCCAA | 0.467
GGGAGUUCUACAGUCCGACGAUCGAGGUACAAGAGCCUGUUUACCUCAUAGAGUGUUUGGGCUCGGAAGUAAAAGUGAAGUUAUUUUGAAGAAAACAACUCAUUUCCAAGGACGACAUGACGACGUGCCUUUUUGGAAUUCUCGGGUGCCAA | 0.34
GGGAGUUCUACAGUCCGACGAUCAAGUCUUGUACUCAAUGACUUUUGUCAUGACAUUUUGUUCUACUUAUACUGUAAAUUAUGCAUUAUAAAGAGUUCAUUUAAGGAAAAUUACUUGGUACAAUAAUUAUUGUUGGAAUUCUCGGGUGCCAA | 0.305
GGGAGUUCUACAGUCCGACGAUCGGUUCUAACCCUUUGCUGUACACAAGCAGACAGAAAUGCAUCUGUUACAUAAAUGAGAAAAAGCUAUUAUGCUGAUGGAGCAUGCUUUUUAAAUCCUUUAAAAACACUCAUGGAAUUCUCGGGUGCCAA | 0.957
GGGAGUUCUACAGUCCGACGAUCUUGACUGAGUGCUUUGACAGUUUGAGACUUCACCAAGUAUAGUAGAAAAACAAAUGGCCUCAACUUGAUCUUACCUGAGUAACCAAGGCUGCUUUUGCUUUGGGUACAGCUGGAAUUCUCGGGUGCCAA | 0.31

Sample 2 — method: protein binding microarray; form: double-stranded DNA, one strand shown; sample: in vitro; tested at: not given; reference: not given; reading: higher = stronger binding
Target: Histone acetyltransferase KAT6A, winged helix 2, GST fusion (KAT6A, Homo sapiens, UniProt Q92794, residues 85-181)
Setting: 8-mer, flanks averaged, mean of 2 arrays, mostly near background
Construct (chain): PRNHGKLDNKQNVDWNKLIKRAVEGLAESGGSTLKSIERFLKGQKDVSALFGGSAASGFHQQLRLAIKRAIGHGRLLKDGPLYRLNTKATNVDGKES
Strand | E-score
GGCATGCA | 0.0794
ATAGTTAA | -0.0625
ACGTTGCA | -0.0923
CTCTGGCA | -0.0986
CCGGAGGC | 0.0748
AAGCCGAG | 0.015
ATTAGAAA | 0.0681
AAGCTGCC | -0.00413
CGTTGCTC | 0.101
GCCACGAC | 0.131
CTTTGAGC | -0.0137
CTGCACCC | -0.0748
CATTATGG | -0.08
CTCTTGTA | -0.232
GTAAGCCA | -0.119
CCATTAAG | -0.0775
TCCGGCAA | 0.125
CGCCTGGC | 0.229
GAGATGGC | -0.1
GCGATGAA | 0.133
ACTTGTTG | -0.149
CACGGAAA | -0.000275
CAGCTCGG | 0.153
ACGGCACC | -0.0961
AAGGTTTC | 0.0179

Sample 3 — method: RNA Bind-n-Seq; form: RNA; sample: in vitro; tested at: not given; setting: RNA with constant flanks, ends assumed; reference: input RNA pool; reading: higher = stronger binding
Target: RING finger protein unkempt homolog, zinc fingers 1-6, GST-SBP tag (UNK, Homo sapiens, UniProt Q9C0B0, residues 30-357)
UniProt Q9C0B0, sequence (30-357, looked up): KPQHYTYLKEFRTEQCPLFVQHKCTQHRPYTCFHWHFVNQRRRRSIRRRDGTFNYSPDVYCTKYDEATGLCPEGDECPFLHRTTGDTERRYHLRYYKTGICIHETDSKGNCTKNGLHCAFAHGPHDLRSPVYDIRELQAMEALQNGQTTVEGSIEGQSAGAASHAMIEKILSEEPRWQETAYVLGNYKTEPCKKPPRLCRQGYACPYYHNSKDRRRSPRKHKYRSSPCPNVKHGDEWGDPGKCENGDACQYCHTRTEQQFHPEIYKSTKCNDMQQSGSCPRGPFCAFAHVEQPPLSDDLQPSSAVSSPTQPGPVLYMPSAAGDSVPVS
Strand | bound/input enrichment
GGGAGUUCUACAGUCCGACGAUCAACAGGAUCAGUUAACUAUUGCAUUUAUAUGUACCGUAGGCUUUGUAUUCAAAAAUUAUCUACCGCUAAGUACACAAUAAGCAAAAACAAAAAGAAAAGAAAAUUUUUGUAGUAGCGUUUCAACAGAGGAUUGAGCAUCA | 0.78 ratio
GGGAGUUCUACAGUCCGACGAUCCCGCUUUUUGCCGCGAGCCGACCGGUCCCGUCAUGCCGACCCGCAGUCCCAGCGUCGUGAUCCGCGAUGAUGAACCAGGUUAUGACCUAGAUUUGUUUUGUAUACCUAAUCAUUAUGCCGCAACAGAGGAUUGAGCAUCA | 0.424 ratio
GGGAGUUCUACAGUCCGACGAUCGGAGCAACUCAAGGAUUGAGGACUGGUUUUACAAAUAUACCAAGUAGAUAUGGAACUAAUAACCGAAUUGGACAACCAAGACCAUGAUAGACUCUAACUUAUUUUUAUAAGGAAUAUUGACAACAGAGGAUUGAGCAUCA | 1.23 ratio
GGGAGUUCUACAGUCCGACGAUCCUUCAAACCCCAGCUUCCACUUUCCUUGCCAUCUUCCCUCCUGGGCAUUGUUUUGCUGUCAUCCGAAGGAAACCAUUUUUUUUUUUCCCAAUUUACCCUGUUUAACCUGUGAGAGUCUCUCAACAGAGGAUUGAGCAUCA | 0.966 ratio
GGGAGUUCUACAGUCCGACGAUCCGUGCUUAUGCUCUUCUAUGAGAGAGAUGAAUUGGGGAGAAUUGUCUCCAUUUUACCGAUCCGUUUCUUUCUAAAUUAUGACCAAAAAUAUUUUGCUAUUUCUUUCUUUGUAUAUGGACACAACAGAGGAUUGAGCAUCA | 0.537 ratio
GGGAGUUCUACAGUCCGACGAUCGUUUUAAAAAUGAACUUCUCCCGCUACACAGAAGUAACAAAUAUGGUAGUCAGUUUUGUAUUCCGAAAUGUAUUGGUAGCAGGGAUGUUUUCAUAAUUUUCAGAGAUUAUGCAUUCUUCACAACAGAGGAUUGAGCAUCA | 0.251 ratio
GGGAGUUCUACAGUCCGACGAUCCCAACUUAUGAGACUGGAUCUCUUUCCUUUGCAGGAGACGAGAGAAUAUGAAGUUUCCAUCCCGGUGGGAGCAGCCUGGGGAUGCACACGCAGUCCUGCAUCGCAGGCCAGCGGCAGGGCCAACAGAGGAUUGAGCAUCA | 0.138 ratio
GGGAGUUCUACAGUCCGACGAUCGACAUUGCAGAGCAUGCUUUGAAAAAUUCUUUAGAAACAGAUAUUCCUACUGUGAAUAUUUCCGCUGAUGAAGAAUUCCUUCCCUUCCAAGAAAACACGUUUGACCUGGUGGUUAGCAGCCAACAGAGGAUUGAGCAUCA | 0.358 ratio
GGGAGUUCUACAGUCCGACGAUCGGCUUUUCCCAGUCCUUCACGCAAGAGCAAGUAGCUGAUAUUGACGGGCAGUAUGCAAUGACCCGGGCUCAGAGGGUCCGAGCUGCCAUGUUCCCUGAGACGCUAGAUGAGGGCAUGCAGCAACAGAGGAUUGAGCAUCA | 0.108 ratio
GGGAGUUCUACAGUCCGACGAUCGGCUUCAGGAACAUCAUAGCAGAUCCUGUCACCUUCAAGACCAAAUCGAGCUAUGUUGCCUCCGCUACCUUGCAAGCCUACACUUCUAUGCAUCUUUUUUUCCAGUUCAAGACAACAUCCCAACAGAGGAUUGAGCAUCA | 0.244 ratio
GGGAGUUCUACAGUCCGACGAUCAGAUCCAUUGCCGUAGAUCCCAGCACAAGCAAGUCGGCAGACUCGAGGUGGCAAAAAGAAGCCGCGAUGCUGAGGAAGGAGACCGAGGACCUUCAACAACAAUGCCUUUAUCUAAAUGAACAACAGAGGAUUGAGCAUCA | 0.146 ratio

Sample 4 — method: universal PBM; form: double-stranded DNA, one strand shown; sample: in vitro; tested at: not given; reading: higher = stronger binding
Target: Sal-like protein 4, full length isoform B (SALL4, Homo sapiens, UniProt Q9UJQ4-2, residues 1-616)
Setting: 8-mer, flanks averaged, mean of replicates
Construct (chain): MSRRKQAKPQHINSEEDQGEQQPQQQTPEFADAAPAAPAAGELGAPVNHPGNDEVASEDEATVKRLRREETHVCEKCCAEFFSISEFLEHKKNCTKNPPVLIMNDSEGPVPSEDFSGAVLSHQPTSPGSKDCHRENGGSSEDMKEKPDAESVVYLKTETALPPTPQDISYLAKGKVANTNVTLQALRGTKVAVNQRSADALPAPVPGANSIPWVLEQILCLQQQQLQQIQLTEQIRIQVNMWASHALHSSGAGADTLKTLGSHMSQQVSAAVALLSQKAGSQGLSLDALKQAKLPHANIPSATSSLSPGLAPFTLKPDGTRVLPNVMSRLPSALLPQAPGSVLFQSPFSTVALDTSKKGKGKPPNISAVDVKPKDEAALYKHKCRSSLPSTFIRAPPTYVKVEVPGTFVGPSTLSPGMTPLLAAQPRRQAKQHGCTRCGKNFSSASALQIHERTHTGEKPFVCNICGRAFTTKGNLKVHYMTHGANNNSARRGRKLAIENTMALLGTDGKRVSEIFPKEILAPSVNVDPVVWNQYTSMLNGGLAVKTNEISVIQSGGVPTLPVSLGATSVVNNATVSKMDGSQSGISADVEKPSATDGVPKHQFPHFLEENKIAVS
Strand | E-score
ATATCGGC | 0.0963
CTGGAGCC | -0.265
CTCGCACC | -0.25
CGGCACAG | -0.178
CGCAATGC | -0.144
AGGAGGAA | -0.0105
AATAGCGT | 0.178
TAATAGCA | 0.162
AGCCCATC | -0.212
CCTTCTTC | -0.0824
AAAGAGAA | 0.131
GCACGTCA | -0.0467
CTCCGTCC | -0.295
GAGCGTCC | -0.329
CCCTCCGG | -0.361
CTATAACA | 0.287
CGCTTGGA | -0.148
ATTTGGCC | -0.0337
GTTGCAGA | -0.0575
GTCATGCA | 0.0413
CCTAAGAA | 0.11
AACAGGTT | 0.175
CTAGATTC | 0.00472
GTAAGAAC | 0.0341
GTTGGACA | 0.0726
